Measurements from different studies.
Parts stem from different laboratories: compare values within a part only.

Block 1 — method: aptamer microarray, sandwich; molecule type: DNA with 2'F-ANA; medium: in vitro; tested at: 200 nM; added: Cy3 exosite-II aptamer, 400 nM; direction: higher = stronger binding; sequence: GGTTGGTGTGGTTGG
Target: Prothrombin, mature alpha-thrombin (F2, Homo sapiens, UniProt P00734)
Setting: whole 15-mer aptamer, many near background
| Modification | mean fluorescence intensity |
| --- | --- |
| 2'F-ANA at 5 6 10 11 13 15 | 46.4 a.u. |
| 2'F-ANA at 1 4 6 9 10 | 57 a.u. |
| 2'F-ANA at 2 3 5 6 9 14 15 | 48.1 a.u. |
| 2'F-ANA at 1 2 6 8 9 11 15 | 135 a.u. |
| 2'F-ANA at 3 4 6 8 9 10 12 14 | 200 a.u. |
| 2'F-ANA at 1 2 3 4 6 8 9 10 11 | 77.8 a.u. |

Block 2 — method: universal PBM; molecule type: double-stranded DNA, one strand shown; medium: in vitro; tested at: 600 nM; direction: higher = stronger binding
Target: Sal-like protein 4, full length isoform A (SALL4, Homo sapiens, UniProt Q9UJQ4, residues 1-1053)
Sequence of UniProt Q9UJQ4 (whole entry, looked up): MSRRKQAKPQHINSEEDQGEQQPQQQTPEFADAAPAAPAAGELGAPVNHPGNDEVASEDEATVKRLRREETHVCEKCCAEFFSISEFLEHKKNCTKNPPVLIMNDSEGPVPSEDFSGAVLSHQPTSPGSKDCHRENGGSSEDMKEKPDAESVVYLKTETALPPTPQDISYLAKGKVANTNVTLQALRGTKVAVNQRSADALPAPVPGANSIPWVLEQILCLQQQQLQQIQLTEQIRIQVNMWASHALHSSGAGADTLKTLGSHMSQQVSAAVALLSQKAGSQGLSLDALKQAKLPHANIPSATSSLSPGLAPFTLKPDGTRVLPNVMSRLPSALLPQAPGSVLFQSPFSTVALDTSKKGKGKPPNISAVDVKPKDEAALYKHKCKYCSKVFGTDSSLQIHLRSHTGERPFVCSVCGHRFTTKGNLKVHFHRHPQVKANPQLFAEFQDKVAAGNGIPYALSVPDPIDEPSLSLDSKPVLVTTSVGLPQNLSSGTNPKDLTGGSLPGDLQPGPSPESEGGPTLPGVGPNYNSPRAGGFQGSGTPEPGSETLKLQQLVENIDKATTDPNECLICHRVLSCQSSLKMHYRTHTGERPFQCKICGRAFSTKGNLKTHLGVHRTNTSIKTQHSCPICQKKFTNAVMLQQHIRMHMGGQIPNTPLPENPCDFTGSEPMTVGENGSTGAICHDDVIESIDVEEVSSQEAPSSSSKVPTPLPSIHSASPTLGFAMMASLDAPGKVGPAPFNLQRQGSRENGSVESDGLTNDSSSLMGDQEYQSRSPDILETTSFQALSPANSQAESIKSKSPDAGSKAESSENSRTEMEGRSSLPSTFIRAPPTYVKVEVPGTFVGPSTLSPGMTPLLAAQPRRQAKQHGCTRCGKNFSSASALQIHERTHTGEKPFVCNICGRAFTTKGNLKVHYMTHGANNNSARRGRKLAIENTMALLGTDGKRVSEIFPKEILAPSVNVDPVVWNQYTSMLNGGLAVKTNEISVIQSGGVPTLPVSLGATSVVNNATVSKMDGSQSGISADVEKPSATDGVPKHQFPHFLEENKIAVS
Setting: 8-mer, flanks averaged, mean of replicates
| Sequence | E-score |
| --- | --- |
| ACACACAT | 0.215 |
| AAGCCTAC | -0.037 |
| CGACGGCG | -0.312 |
| AGCTAACC | -0.25 |
| CTGCGCAA | -0.123 |
| AACAGGAA | 0.177 |
| TAGCAGGA | -0.108 |
| CACGCAAC | -0.0388 |
| AATGGTTA | 0.144 |

Block 3 — method: protein-binding microarray; molecule type: double-stranded DNA, one strand shown; medium: in vitro; tested at: not given; direction: higher = stronger binding
Target: Max dimerization protein 1, bHLH-zipper, MAX partner unstated (MXD1, Homo sapiens, UniProt Q05195, residues 56-136)
Setting: k-mer, scored over probes, only values ≥0.25
Residues (chain): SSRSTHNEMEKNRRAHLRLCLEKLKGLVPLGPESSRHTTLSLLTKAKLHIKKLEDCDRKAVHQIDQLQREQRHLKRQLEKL
| Sequence | E-score |
| --- | --- |
| CATGGTAC | 0.379 |
| ACGCATAA | 0.277 |
| AGCCACGC | 0.355 |
| CATGCGGA | 0.419 |
| AACGTGTC | 0.371 |
| CGTGGCGC | 0.263 |
| CATGCCCG | 0.366 |
| ATGCTCAC | 0.271 |
| CGCGTGTA | 0.443 |

Single results of other studies
| Substance | target | test | system | conditions | how to read | endpoint | result |
| --- | --- | --- | --- | --- | --- | --- | --- |
| PhoQ, residues 284 288 289 292 302 303 AMDMFI | PhoP, residues 12 14 15 18 19 AQCLL (Escherichia coli, UniProt P23836) | Sort-seq, refers to: YFP reporter | E. coli | PhoQ-PhoP variant library, added: 10 µM Mg2+ | baseline: high Mg2+ state, higher = stronger signaling | fold induction | 0.955 |

Some of these lines once more (block 2):
| Sequence | E-score |
| --- | --- |
| CTGCGCAA | -0.123 |
| AACAGGAA | 0.177 |
